Published values pooled from the literature.
Protocols differ between the studies behind these lines. Several values in a cell are separate wells, animals, samples, runs or records.
Target: Protein-tyrosine kinase 2-beta (PTK2B, Homo sapiens, UniProt Q14289)

For Nc1ncc(-c2cc(-c3cnn(CC(F)(F)F)c3)ncc2F)nc1C(=O)NC1CNCC(F)C1 (stereo not drawn), the remaining activity was 100% (enzyme activity; 1 µM; baseline: DMSO control).
The inhibition of C=CC(=O)N1Cc2nc(-c3cc(-c4cc(Cl)cnc4Cl)c(F)cc3F)n(-c3ccncn3)c2C1 is reported as 4.4% (cell-free assay, inhibitor; 1 µM).
The inhibition of NC(=O)[C@@H](O)C[C@H]1CCc2sc3ncnc(O[C@H]4CC[C@H](N5CCOCC5)CC4)c3c21 is reported as 7% (enzyme activity, inhibitor; 10 µM).
Cc1cccc(O[C@H]2CCC[C@@H](C(C)CNCc3ccncc3)C2)c1 (relative stereo) gave an inhibition of 1% (enzyme activity, inhibitor; 10 µM).
COc1cc(Nc2nccc(-c3cnn4nc(OC)ccc34)n2)cc(C(F)(F)F)c1 has a remaining binding of 87% (binding, competition with immobilised ligand; 1 µM).
With C=CC(=O)N1CCc2ccc(-n3c(=O)ccc4cnc5ccc(-c6cnn(C)c6)cc5c43)cc21 the remaining binding was 100% (KINOMEscan; 1 µM; baseline: DMSO control).
For CCN1CCN(Cc2ccc(NC(=O)c3ccc(C)c(NC(=O)c4cncc(-c5cccs5)c4)c3)cc2C(F)(F)F)CC1, the remaining binding was 26% (binding, competition with immobilised ligand; 1 µM).
C=CC(=O)Nc1cccc(-c2cnc3[nH]cc(C(=O)NC(C)(C)C)c3n2)c1 has an inhibition of 9% (enzyme activity, inhibitor; 0.1 µM).
Cc1ccc(-c2c(/C=C(\C#N)C(=O)NC(C)C)n(CCCO)c3ncnc(N)c23)cc1 gave a remaining binding of 100% (cell-free assay, competition with immobilised ligand; 1 µM).
The remaining binding of CC(C)=CC1OC(C)(C)C2C=C3C(=O)C(Cl)=CC(O)C3C3C(O)C4OC4C(=O)C132 (stereo not drawn) is reported as 91% (cell-free assay, competition with immobilised ligand; 10 µM).
For Nc1ncc2c(n1)-c1c([nH]c3ccc(C4=CCOCC4)cc13)CCC2, the remaining binding was 100% (binding, competition with immobilised ligand; 1 µM).
With COCC12C(=O)NC3C4(C(OC)CC1O)C1CC5(O)C(OC)C(O)C(OC(C)=O)(C1C5OC(=O)c1ccccc1)C3(O)C(OC)C24 (stereo not drawn) the remaining activity was 106% and 96% (kinase activity, inhibitor, ProQinase kinase profiling; 25 µM; baseline: control).
The remaining activity of O=C=[N][Ru-4]123([n]4c5ccc(O)cc5c5c6c(c7cc(F)c[n+]1c7c54)C(=O)NC6=O)[S+]1CC[S+]2CC[S+]3CC1 (stereo not drawn) is reported as 62% (enzyme activity; 100 nM, human enzyme, with: 10 µM ATP; baseline: untreated).
For O=C(Nc1ccc(Oc2ncnc3[nH]cc(-c4ccccc4)c23)c(F)c1)c1c2n(n(-c3cc(F)ccc3F)c1=O)CCCC2, the inhibition was -5% (enzyme activity, inhibitor; 0.5 µM).
With CNC(=O)C1CCN(c2cc(C)c(F)cc2NC(=O)c2ccc(-c3cc(O)ccc3C)c(C)c2)CC1 the remaining binding was 100% (binding, competition with immobilised ligand; 1 µM).

A few entries again:
Cc1cccc(O[C@H]2CCC[C@@H](C(C)CNCc3ccncc3)C2)c1 (relative stereo) gave an inhibition of 1% (enzyme activity, inhibitor; 10 µM).
COc1cc(Nc2nccc(-c3cnn4nc(OC)ccc34)n2)cc(C(F)(F)F)c1 has a remaining binding of 87% (binding, competition with immobilised ligand; 1 µM).
